Assay results gathered from unrelated publications.
Compare with care: the assays were run in different laboratories. Numbers after ± are the reported error.

CCCC[C@H](NC(=O)COCCOCCNC(=O)CN1CCN(CC(=O)O)CCN(CC(=O)O)CC1)C(=O)N[C@H]1CC(=O)NCCCC[C@@H](C(N)=O)NC(=O)[C@H](Cc2c[nH]c3ccccc23)NC(=O)[C@H](CCCNC(=N)N)NC(=O)[C@@H](Cc2ccccc2)NC(=O)[C@H](Cc2c[nH]cn2)NC1=O [copper-64 labelled]
tissue uptake (C57 mice, liver; intravenous, 0.37 MBq, 0.5 h): 2.61 ± 0.55 %ID/g

N=C(N)NCCC[C@@H]1NC(=O)[C@H](CCCCNC(=O)CC[C@H](NC(=O)CC[C@H](NC(=O)CN2CCN(CC(=O)O)CCN(CC(=O)O)CCN(CC(=O)O)CC2)C(=O)N[C@@H](CCC(=O)NCCCC[C@@H]2NC(=O)[C@@H](Cc3ccccc3)NC(=O)[C@H](CC(=O)O)NC(=O)CNC(=O)[C@H](CCCNC(=N)N)NC2=O)C(=O)NCCCC[C@@H]2NC(=O)[C@@H](Cc3ccccc3)NC(=O)[C@H](CC(=O)O)NC(=O)CNC(=O)[C@H](CCCNC(=N)N)NC2=O)C(=O)NCCCC[C@@H]2NC(=O)[C@@H](Cc3ccccc3)NC(=O)[C@H](CC(=O)O)NC(=O)CNC(=O)[C@H](CCCNC(=N)N)NC2=O)NC(=O)[C@@H](Cc2ccccc2)NC(=O)[C@H](CC(=O)O)NC(=O)CNC1=O [indium-111 labelled]
tissue uptake (female athymic nu/nu mice, intestine; intravenous, 24 h): 7.03 ± 2.06 %ID/g

CCCC[C@H](NC(=O)CNC(=O)CNC(=O)CN1CCN(CC(=O)O)CCN(CC(=O)O)CCN(CC(=O)O)CC1)C(=O)N[C@H]1CC(=O)NCCCC[C@@H](C(N)=O)NC(=O)[C@H](Cc2c[nH]c3ccccc23)NC(=O)[C@H](CCCNC(=N)N)NC(=O)[C@@H](Cc2ccccc2)NC(=O)[C@H](Cc2c[nH]cn2)NC1=O [lutetium-177 labelled]
tissue uptake (C57 mouse, female, pancreas; intravenous, 0.037 MBq, 2 h): 0.2 ± 0.05 %ID/g

N=C(N)NCCC[C@@H]1NC(=O)[C@H](CCCCNC(=O)CNC(=O)CNC(=O)CNC(=O)CC[C@H](NC(=O)CNC(=O)CNC(=O)CNC(=O)CC[C@H](NC(=O)CN2CCN(CC(=O)O)CCN(CC(=O)O)CCN(CC(=O)O)CC2)C(=O)NCC(=O)NCC(=O)NCC(=O)N[C@@H](CCC(=O)NCC(=O)NCC(=O)NCC(=O)NCCCC[C@@H]2NC(=O)[C@@H](Cc3ccccc3)NC(=O)[C@H](CC(=O)O)NC(=O)CNC(=O)[C@H](CCCNC(=N)N)NC2=O)C(=O)NCC(=O)NCC(=O)NCC(=O)NCCCC[C@@H]2NC(=O)[C@@H](Cc3ccccc3)NC(=O)[C@H](CC(=O)O)NC(=O)CNC(=O)[C@H](CCCNC(=N)N)NC2=O)C(=O)NCC(=O)NCC(=O)NCC(=O)NCCCC[C@@H]2NC(=O)[C@@H](Cc3ccccc3)NC(=O)[C@H](CC(=O)O)NC(=O)CNC(=O)[C@H](CCCNC(=N)N)NC2=O)NC(=O)[C@@H](Cc2ccccc2)NC(=O)[C@H](CC(=O)O)NC(=O)CNC1=O [indium-111 labelled]
tissue uptake (female athymic nu/nu mice, spleen; intravenous, 111 kBq, 0.5 h): 2.63 ± 0.45 %ID/g

CC(C)C[C@@H](NC(=O)[C@@H](CCC(=O)O)NC(=O)[C@@H](CC(C)C)NC(=O)[C@@H](CC(C)C)NC(=O)[C@@H](CC(C)C)NC(=O)[C@H](NC(=O)[C@@H](CCC(=O)O)NC(=O)[C@H](NC(=O)[C@H]1CCCN1C(=O)[C@@H](Cc1ccccc1)NC(=O)[C@@H](CC(C)C)NC(=O)[C@@H](Cc1c[nH]c2ccccc12)NC(=O)[C@@H](CCC(=O)O)NC(=O)[C@@H](CC(C)C)NC(=O)[C@@H](Cc1ccc(O)cc1)NC(=O)[C@@H](CCCNC(=N)N)NC(=O)[C@@H](C)NC(=O)[C@@H](Cc1c[nH]c2ccccc12)NC(=O)[C@H]1CCCN1C(=O)[C@@H](CC(N)=O)NC(=O)[C@@H](CCC(N)=O)NC(=O)[C@@H](CCC(=O)O)NC(=O)[C@@H](CCC(=O)O)NC(=O)[C@@H](CS)NC(=O)[C@@H](C)NC(=S)Nc1ccc(CC2CN(CC(=O)O)CCN(CC(=O)O)CCN2CC(=O)O)cc1)[C@H](C)O)[C@H](C)O)C(=O)O (stereo partly drawn) [fluorine-18 labelled]
kidney-to-large intestine ratio (female BALB/c mice, 4T1 orthotopic tumour; intravenous, 2 h; baseline: kidney over large intestine): 0.55 ± 0.19

C=C1CC[C@H](OCCCNC(=O)CCOCCOCCOCCOCCOCCOCCOCCOCCOCCOCCOCCOCCOCCOCCOCCOCCOCCOCCOCCOCCOCCOCCOCCOCCOCCOCCOCCOCCOCCOCCOCCOCCOCCOCCOCCOCCNC(=O)CCN2C(=O)CC(SC[C@H](NC(=O)[C@H](Cc3ccccc3)NC(=O)[C@H](CC(N)=O)NC(=O)[C@H](Cc3c[nH]cn3)NC(=O)[C@@H](NC(=O)[C@H](CC(=O)O)NC(=O)[C@H](CCC(N)=O)NC(=O)[C@H](CC(C)C)NC(=O)[C@H](CCCCN)NC(=O)[C@H](CCCCN)NC(=O)[C@H](CCCNC(=N)N)NC(=O)[C@H](CC(C)C)NC(=O)[C@H](Cc3c[nH]c4ccccc34)NC(=O)[C@H](CCC(=O)O)NC(=O)[C@@H](NC(=O)[C@H](CCCNC(=N)N)NC(=O)[C@H](CCC(=O)O)NC(=O)[C@H](CCSC)NC(=O)[C@H](CO)NC(=O)[C@H](CC(N)=O)NC(=O)[C@H](CC(C)C)NC(=O)[C@H](Cc3c[nH]cn3)NC(=O)[C@H](CCCCN)NC(=O)CNC(=O)[C@H](CC(C)C)NC(=O)[C@H](CC(N)=O)NC(=O)[C@H](Cc3c[nH]cn3)NC(=O)[C@H](CCSC)NC(=O)[C@H](CC(C)C)NC(=O)[C@H](CCC(N)=O)NC(=O)[C@@H](NC(=O)[C@H](CCC(=O)O)NC(=O)[C@H](CO)NC(=O)[C@@H](NC(=O)[C@@H](N)CO)C(C)C)[C@@H](C)CC)C(C)C)C(C)C)C(N)=O)C2=O)C/C1=C/C=C1\CCC[C@]2(C)[C@@H]([C@H](C)CCCC(C)(C)O)CC[C@@H]12 (stereo partly drawn)
dose-normalised AUC (cynomolgus monkey; sc, 2 µg/kg every other day, 89 days; baseline: 0.7 µg/kg dose): 0.45

CCCC[C@H](NC(=O)CCCCCCCNC(=O)CN1CCN(CC(=O)O)CCN(CC(=O)O)CC1)C(=O)N[C@H]1CC(=O)NCCCC[C@@H](C(N)=O)NC(=O)[C@H](Cc2c[nH]c3ccccc23)NC(=O)[C@H](CCCNC(=N)N)NC(=O)[C@@H](Cc2ccccc2)NC(=O)[C@H](Cc2c[nH]cn2)NC1=O [copper-64 labelled]
tissue uptake (C57 mice, kidney; intravenous, 0.37 MBq, 0.5 h): 30.7 ± 0.94 %ID/g

CN1C(=O)[C@@H](Cc2ccc(O)cc2)NC(=O)CNC(=O)[C@H](Cc2ccc3ccccc3c2)NC(=O)[C@H](CCCNC(=N)N)NC(=O)[C@H]1CCCNC(=O)c1ccc(CNC(=O)CN2CCN(CC(=O)O)CCN(CC(=O)O)CCN(CC(=O)O)CC2)cc1 [gallium-68 labelled]
excreted dose (C57BL/6 mice, no tumour, excreta; up to 3 h, decay corrected): 72 ± 9%

N=C(N)NCCC[C@@H]1NC(=O)[C@H](CCCCNC(=O)CNC(=O)CNC(=O)CNC(=O)CC[C@H](NC(=O)CNC(=O)CNC(=O)CNC(=O)CN2CCN(CC(=O)O)CCN(CC(=O)O)CCN(CC(=O)O)CC2)C(=O)NCC(=O)NCC(=O)NCC(=O)NCCCC[C@@H]2NC(=O)[C@@H](Cc3ccccc3)NC(=O)[C@H](CC(=O)O)NC(=O)CNC(=O)[C@H](CCCNC(=N)N)NC2=O)NC(=O)[C@@H](Cc2ccccc2)NC(=O)[C@H](CC(=O)O)NC(=O)CNC1=O [indium-111 labelled]
tissue uptake (female athymic nu/nu mice, heart; intravenous, 1 h): 0.6 ± 0.12 %ID/g
